Results of several laboratories.
Lines come from different studies, so protocols differ.

SMILES	sample	pH	temperature	setting	Stokes shift [nm]
COC(=O)c1ccccc1-c1c2ccc(=O)cc-2oc2c1ccc1cccc(O)c12	12.5 mM aqueous NaOH	pH 12.1		10% DMSO	161
Nc1cccc2ccc(/C=C/C(=O)c3ccc(C(F)(F)F)cc3)cc12	toluene		20 °C		137
CC1(C)C(/C=C/C2=C(Cl)C(=C/C=C3/N(CCCCCC(=O)O)c4ccccc4C3(C)C)/C[N+](C)(C)C2)=[N+](CCCCCC(=O)O)c2ccccc21	methanol				28
CCCCN1C(=O)c2cccc3c(NCCCCCCCCCCN4CCOCC4)ccc(c23)C1=O	water	pH 6.0			107
CC1(C)C(=CC=C2CCCC(C=CC3=[N+](CCC[N+](C)(C)C)c4ccc(S(=O)(=O)O)cc4C3(C)C)=C2SCCOCCOCCC(=O)O)N(CCC[N+](C)(C)C)c2ccc(S(=O)(=O)O)cc21	HEPES buffer with FBS	pH 7.4		50 mM HEPES, 30% FBS	30
COC(=O)c1ccccc1-c1c2ccc(=O)cc-2oc2c1ccc1cccc(N)c12	aqueous HCl 10% DMSO	pH 1.9			172
Nc1ccc2cc(/C=C/C(=O)c3ccc(O)cc3)ccc2c1	toluene		20 °C		110
CCCCN1C(=O)c2cccc3c(NCCCCN4CCOCC4)ccc(c23)C1=O	dichloromethane				80
COc1ccc2nc(-c3ccc(N(C)C)cc3)sc2c1	PBS			free dye	131

Repeated from above:
SMILES	sample	pH	temperature	setting	Stokes shift [nm]
COc1ccc2nc(-c3ccc(N(C)C)cc3)sc2c1	PBS			free dye	131
